Published values from different studies.
Compare with care: the assays were run in different laboratories. Changes are numbered by the printed parent chain.
P1: ZYX; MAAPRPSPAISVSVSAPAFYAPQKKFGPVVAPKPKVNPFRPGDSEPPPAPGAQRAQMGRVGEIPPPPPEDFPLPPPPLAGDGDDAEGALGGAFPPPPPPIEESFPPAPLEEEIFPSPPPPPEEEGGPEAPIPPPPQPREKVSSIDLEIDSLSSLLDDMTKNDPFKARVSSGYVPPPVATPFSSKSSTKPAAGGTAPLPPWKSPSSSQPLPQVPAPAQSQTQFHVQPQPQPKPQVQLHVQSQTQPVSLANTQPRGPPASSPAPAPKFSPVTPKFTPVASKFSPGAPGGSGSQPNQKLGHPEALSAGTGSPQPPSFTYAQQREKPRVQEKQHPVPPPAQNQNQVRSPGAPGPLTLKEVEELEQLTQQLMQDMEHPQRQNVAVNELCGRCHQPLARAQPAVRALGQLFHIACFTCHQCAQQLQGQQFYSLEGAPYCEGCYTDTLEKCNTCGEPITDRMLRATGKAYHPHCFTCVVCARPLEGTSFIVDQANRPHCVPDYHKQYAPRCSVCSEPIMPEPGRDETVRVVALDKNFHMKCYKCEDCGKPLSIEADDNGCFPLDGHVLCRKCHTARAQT
P2: ADGRB3 CUB domain (Homo sapiens); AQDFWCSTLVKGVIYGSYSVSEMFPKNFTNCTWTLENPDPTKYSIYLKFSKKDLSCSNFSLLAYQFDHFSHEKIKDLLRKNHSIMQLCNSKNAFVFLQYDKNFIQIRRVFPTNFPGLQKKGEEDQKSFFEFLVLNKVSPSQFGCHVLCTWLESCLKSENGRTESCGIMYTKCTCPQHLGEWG
P3: SCAP (Homo sapiens); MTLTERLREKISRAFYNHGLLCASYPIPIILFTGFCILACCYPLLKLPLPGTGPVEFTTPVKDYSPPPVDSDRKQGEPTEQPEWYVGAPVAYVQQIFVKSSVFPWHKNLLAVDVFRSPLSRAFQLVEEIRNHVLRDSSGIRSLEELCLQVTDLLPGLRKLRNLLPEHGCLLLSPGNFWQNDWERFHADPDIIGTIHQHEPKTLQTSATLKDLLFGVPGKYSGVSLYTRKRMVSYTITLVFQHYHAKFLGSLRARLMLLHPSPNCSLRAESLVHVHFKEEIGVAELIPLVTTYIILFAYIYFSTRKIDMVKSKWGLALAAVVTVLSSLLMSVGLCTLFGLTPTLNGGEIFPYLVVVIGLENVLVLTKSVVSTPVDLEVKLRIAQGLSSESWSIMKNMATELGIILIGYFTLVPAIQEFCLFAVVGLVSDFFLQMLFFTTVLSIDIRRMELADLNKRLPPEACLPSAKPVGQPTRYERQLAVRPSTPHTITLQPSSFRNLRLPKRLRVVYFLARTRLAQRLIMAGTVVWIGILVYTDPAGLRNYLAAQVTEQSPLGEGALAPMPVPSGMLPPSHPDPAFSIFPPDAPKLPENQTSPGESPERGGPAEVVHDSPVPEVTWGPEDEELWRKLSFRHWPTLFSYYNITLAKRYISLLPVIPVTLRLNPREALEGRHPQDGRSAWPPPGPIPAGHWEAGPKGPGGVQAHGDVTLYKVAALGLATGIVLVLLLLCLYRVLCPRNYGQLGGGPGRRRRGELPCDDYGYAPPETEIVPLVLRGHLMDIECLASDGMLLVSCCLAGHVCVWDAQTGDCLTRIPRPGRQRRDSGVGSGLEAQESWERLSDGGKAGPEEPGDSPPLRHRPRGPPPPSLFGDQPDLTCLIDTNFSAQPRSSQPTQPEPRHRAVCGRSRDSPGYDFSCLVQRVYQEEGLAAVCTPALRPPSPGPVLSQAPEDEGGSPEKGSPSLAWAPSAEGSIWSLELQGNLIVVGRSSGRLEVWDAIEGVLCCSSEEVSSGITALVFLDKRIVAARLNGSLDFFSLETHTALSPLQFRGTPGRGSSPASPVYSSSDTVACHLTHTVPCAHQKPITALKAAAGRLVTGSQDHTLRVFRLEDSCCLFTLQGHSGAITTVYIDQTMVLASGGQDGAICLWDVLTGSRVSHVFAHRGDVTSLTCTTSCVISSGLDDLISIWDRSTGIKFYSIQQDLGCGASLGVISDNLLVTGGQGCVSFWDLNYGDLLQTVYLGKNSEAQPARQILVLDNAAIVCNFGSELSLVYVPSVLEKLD; partner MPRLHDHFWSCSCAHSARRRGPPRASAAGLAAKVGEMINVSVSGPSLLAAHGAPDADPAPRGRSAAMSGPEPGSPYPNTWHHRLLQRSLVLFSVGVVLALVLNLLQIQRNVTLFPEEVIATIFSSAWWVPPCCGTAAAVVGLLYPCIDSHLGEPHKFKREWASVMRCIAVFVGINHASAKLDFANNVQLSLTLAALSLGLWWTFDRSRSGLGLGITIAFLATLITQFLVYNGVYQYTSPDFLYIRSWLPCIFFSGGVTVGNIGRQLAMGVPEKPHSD
B1: DISC1 coiled coil 765-835; chain GPWKEDSHIVSAEVGEKCEAIGVKLLHLEDQLLGAMYSHDEALFQSLQGELQTVKETLQAMILQLQPTKEA
P4: ITGA2 cytoplasmic domain peptide (Homo sapiens); WKLGFFKRKYEKM
P5: SPAST MIT domain, 112-195 (Homo sapiens); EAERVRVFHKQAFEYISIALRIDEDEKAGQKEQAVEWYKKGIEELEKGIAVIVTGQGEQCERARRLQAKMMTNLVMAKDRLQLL; partner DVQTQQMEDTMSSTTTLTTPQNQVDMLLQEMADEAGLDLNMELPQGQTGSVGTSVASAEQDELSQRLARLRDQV
P6: KSS1 (Saccharomyces cerevisiae); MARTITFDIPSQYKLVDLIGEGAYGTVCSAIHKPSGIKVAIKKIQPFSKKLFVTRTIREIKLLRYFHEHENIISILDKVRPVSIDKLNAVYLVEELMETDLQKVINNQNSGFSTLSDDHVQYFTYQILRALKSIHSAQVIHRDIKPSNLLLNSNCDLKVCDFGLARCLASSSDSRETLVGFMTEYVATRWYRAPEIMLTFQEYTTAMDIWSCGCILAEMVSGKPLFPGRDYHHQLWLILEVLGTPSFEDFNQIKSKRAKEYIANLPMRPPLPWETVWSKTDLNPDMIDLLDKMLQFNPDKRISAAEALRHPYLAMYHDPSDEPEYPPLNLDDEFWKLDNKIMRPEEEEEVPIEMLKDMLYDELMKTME
UniProt P35639, sequence (whole entry, looked up): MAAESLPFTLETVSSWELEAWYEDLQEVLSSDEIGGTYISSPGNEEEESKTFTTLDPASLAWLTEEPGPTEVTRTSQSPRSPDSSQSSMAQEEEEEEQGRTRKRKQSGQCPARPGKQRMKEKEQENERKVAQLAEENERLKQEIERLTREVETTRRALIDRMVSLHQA

| Molecule | target or system | assay | system | conditions | how to read | measurement | value |
| --- | --- | --- | --- | --- | --- | --- | --- |
| P1 S142A S169C | YWHAG | GST pull-down | lysate | – | reference: unchanged protein, higher = more binding | relative binding | 2.19 |
| P2 K42A | C1ql1 globular C1q domain (Mus musculus) | ITC | – | with: Ca2+ 2 mM | – | Kd | 9.5 µM |
| P3 I348F | INSIG1 (Homo sapiens) | co-IP | – | read off a plot, with: 25-HC | higher = more binding | signal | 0 |
| B1 (DISC1 coiled coil 765-835) | DDIT3 (UniProt P35639) | ITC | – | read off a plot | – | Kd | 10 µM |
| GAGCTGTATCGTCTTGACTG (dsDNA (Trichomonas vaginalis); 20-mer duplex) | MYB21 40-156 K51A (Trichomonas vaginalis, UniProt Q58HP3) | ITC | double-stranded DNA, one strand shown | – | – | Kd | 0.962 µM |
| P4 L3A G4A | RAB21 residues 15-225 (Homo sapiens) | fluorescence polarisation | – | – | reference: unchanged protein, higher = more binding | relative binding | 3 |
| P5 F13A | CHMP1B residues 126-199 (Homo sapiens) | SPR | – | – | – | Kd | > 282 µM |
| P4 F5A F6A | RAB21 residues 15-225 (Homo sapiens) | fluorescence polarisation | – | – | reference: unchanged protein, higher = more binding | relative binding | 10 |
| GGATGCCG (dsDNA 8 bp duplex) | FKBP3 1-74 (Homo sapiens, UniProt Q00688) | NMR | double-stranded DNA, one strand shown | – | – | binding | no binding |
| P6 D318A D321A | STE7 residues 1-98 (Saccharomyces cerevisiae) | GST pull-down | – | – | – | Kd | > 50 µM |
